Results pooled from the literature.
Numbered parts are unrelated; each lists some results of a single study. Values joined by “and” are separate records of one study, mostly repeats; a detail may differ. Substitutions count along the parent as printed.

Sample 1 — technique: protein-binding microarray; molecule type: double-stranded DNA, one strand shown; medium: in vitro; concentration: 2200 nM top; setting: 60-bp whole probe; together with: salmon DNA 0.4 mg/ml; relative to: random background probes; direction: higher = stronger binding; shared flanks, not repeated: GCCTAGCAC … GTCTTGATTCGCTTGACGCTGCTG
Target: Interferon regulatory factor 7, full length, phosphomimetic (IRF7, Homo sapiens, UniProt Q92985, residues 1-503, S471D/S472D/S475D/S476D/S477D/S483D/S484D/S487D)
Chain of UniProt Q92985 (whole entry, unmodified, looked up): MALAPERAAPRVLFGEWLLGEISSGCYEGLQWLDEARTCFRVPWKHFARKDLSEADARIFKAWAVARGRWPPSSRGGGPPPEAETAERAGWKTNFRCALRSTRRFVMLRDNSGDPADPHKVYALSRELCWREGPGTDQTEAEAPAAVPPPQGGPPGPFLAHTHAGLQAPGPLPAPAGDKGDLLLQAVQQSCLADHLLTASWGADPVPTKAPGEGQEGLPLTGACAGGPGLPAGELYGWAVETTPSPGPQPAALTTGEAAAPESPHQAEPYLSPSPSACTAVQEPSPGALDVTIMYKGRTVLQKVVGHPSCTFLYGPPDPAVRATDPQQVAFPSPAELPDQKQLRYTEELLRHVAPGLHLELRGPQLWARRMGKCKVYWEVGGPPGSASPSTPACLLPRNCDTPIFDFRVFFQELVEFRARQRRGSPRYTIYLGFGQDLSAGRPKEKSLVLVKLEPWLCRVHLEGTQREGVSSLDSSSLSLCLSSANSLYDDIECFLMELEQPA
| Oligonucleotide | fitted relative affinity [z-score] |
| --- | --- |
| TTAGATTCCAGTTTAGATTAGTGCTAG | 1.12 |
| GGATGTCTGTAGCTCATTCTGTGCTAG | 0.638 |
| TTAGGTTTCGACACTGGGTGAGTGCTA | 2.16 |
| TTAGGTTCCGGTTTCGGCTAGTGCTAG | 5.29 |
| GACGGACTGAGTCTCGAGACGTGCTAG | -0.376 |
| TTAGGTATCCTTCTCCTTGAGTGCTAG | 1.01 |
| TTAGATATAGGGACTGGATTAGTGCTA | -0.818 |
| TTTGGTATCCTACTGCTTTAGTGCTAG | 1.34 |
| TTAGGTATGCTACTGCTTTAGTGCTAG | 0.145 |
| GACGGACTGCTACTGCTGAAGTGCTAG | -0.205 |
| TTAGGACTGGGGAATGGGTTAGTGCTA | -0.846 |
| TTAGATATCAGACTGGATTGGTGCTAG | 0.0854 |
| TTAGGACTGGACACTGGGGTAGTGCTA | -0.709 |
| GACGGTATCGGGAGTGGGGACGTGCTA | -0.536 |
| TTAGGTCTTGGTTTCGGTTAGTGCTAG | 5.98 |
| TACGGTTTCGGACTGGGGACGTGCTAG | 4.04 |
| GATAATTTATAAATAAAAAAGTGCTAG | -1.45 |
| TTCACTTTCCAAAACATGAAGTGCTAG | 2.3 |
| AACTGCTGCCGTCCACCACTGTGCTAG | 0.513 |
| GACGGTATCGGTCTGGGGACGTGCTAG | -0.0505 |
| TTAGGTACCGGGACTGGGTTAGTGCTA | -0.692 |
| TTAGGACTGCCACTGCTTTAGTGCTAG | -0.196 |
| TCAAATACAAGTTTCTCACTGTGCTAG | 0.527 |

Sample 2 — technique: RNA Bind-n-Seq; molecule type: RNA; medium: in vitro; concentration: 365 nM; relative to: no-protein control; direction: higher = stronger binding
Target: RNA binding protein fox-1 homolog 2, RRM domain, GST-SBP tag (RBFOX2, Homo sapiens, UniProt O43251-10, residues 100-194)
Setting: natural RNA segment, single round, ends assumed
Residues (chain): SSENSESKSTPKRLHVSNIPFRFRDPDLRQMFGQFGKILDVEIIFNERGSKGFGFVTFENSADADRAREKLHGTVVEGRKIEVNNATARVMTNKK
| Oligonucleotide | RBNS enrichment (R) |
| --- | --- |
| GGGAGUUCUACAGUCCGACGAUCUUUUAAGUGUGCUUUAAAGAAAAAUAUUUUCCCCACAAGAGAAAUUUAAAUAAAGAAUUUUAUUUGUUAUGGUUUGUUUUAGUAUGUUUUUGUGUCCAUGAUGAGAUUAAUGGAAUUCUCGGGUGCCAA | 4.21 |
| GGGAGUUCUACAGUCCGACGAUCGCUCCCCCUCGUCCUGACUCAGCUCGGGUGUGUGCAGCAUCAGGCUGUGCCUGCUCCAGAGGCAUGGGCCACCUGGGUAACAGCACACAGCAGAAAAGCACAGAGAGAAAUGGAAUUCUCGGGUGCCAA | 0.423 |
| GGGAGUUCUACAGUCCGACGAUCUCACCCCACCCUCGACUCUGGCACCAGUAUGGUUCUAUGCAUGUUGCAGCUCUCUGGGCUGUGACUCUGUUAAGAAGGUUUGCCAGCUUUCUGGCCCUUCCCCGCUCCUAUGGAAUUCUCGGGUGCCAA | 0.825 |
| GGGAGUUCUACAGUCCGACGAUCUGGAUUAGGGAUAGGCACCUCUGAAAUCUCCACCCUGAUGAUUGGAAUGAAACGGAGUGAACAUGAGCCCAGCUGAGAGAGGAGCAGGAAUGUGUGAAAAACAGCUGCUCUGGAAUUCUCGGGUGCCAA | 0.955 |
| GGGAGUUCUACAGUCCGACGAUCGACAAAUGAGUUGAUGGUCUAAAUUAUAAGAUUUGUGUCACAUUAUCUUGAUGCCAGUUUGCCAAAUCUGAUACUGUGAAAAAAUUUGAUAGCUUUUCUAAUGUCUGACUUGGAAUUCUCGGGUGCCAA | 0.588 |
| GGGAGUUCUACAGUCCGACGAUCAUUUUCUGGACUUUAAAUCUCCUGGUUAAAUAAUGCUAAUCACUGUACCAUUUGAGUUACAUGUUUUAACCUCUUUUUUUUUUCUAAUUAUUCCAUCCAAAAUUUCUGGUUGGAAUUCUCGGGUGCCAA | 0.576 |
| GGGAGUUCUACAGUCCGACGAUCAGGAAGAACAGCUGAUAGAAAUUCAAGAUUACUAUAAUGGCUGUUAUUAUACACAGCUCUGUAAACUACCACUCAGCCCUGUGUUGGGGUCCUCAAAGAAGUAAGGCCACUGGAAUUCUCGGGUGCCAA | 0.299 |
| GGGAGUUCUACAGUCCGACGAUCUGAAGCUUUGCUUUGUGGAUUGUAUGCCUGAUAUGAUGAAUAGUCAUGUGAUGAUACAUGGGAAGAACUAUAGAAAGAAUUAUCCAGAAGCUAAGAUUUGAUGGCCAGCUUGGAAUUCUCGGGUGCCAA | 0.596 |
| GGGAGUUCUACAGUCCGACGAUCUUUUAAGUGUUGAUGCUUUGUAGUACUACAAAGCUAAAUUGUGCAAACAAAACAUAUUUAACAGAGUAAUUGGGAGGAUAAAGCAAUAAUAAAUUCAAAUAUAUUUUUCUUGGAAUUCUCGGGUGCCAA | 0.371 |
| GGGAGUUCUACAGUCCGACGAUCUGUCAAAUUAAGAUAUGUAUUUGUAAGUUAUUGGUGGCUCAUUUAAACUGUAUCAUACAGUAAUGCCAGCAUUUUUAUUUAAUAGGUCAUCGUCUUCCUUUUAUAGCUGUUGGAAUUCUCGGGUGCCAA | 0.51 |
| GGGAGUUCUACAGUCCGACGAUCUCCUUCCUACAGAAACUGUUUCUCCUCCUCCCCUCCAGCCUUCACACAAGGGCCUUGGCUUUGUUGAGACAGAGCCUGUGCUGGCACUUGCUGUUAGGGUAGGAAGAGGCUGGAAUUCUCGGGUGCCAA | 0.3 |
| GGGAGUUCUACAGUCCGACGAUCUCCUGCCCUCUGUGGUCAUCUGCCACCUGCUGGAUCAAGUGCUUUCUCUUUUACACUCCCCUGUCCCCACCCCAGUGCACUCUUCUGGCCCAGGCAGCAAGCAAGCUGUGUGGAAUUCUCGGGUGCCAA | 0.642 |

Sample 3 — technique: protein binding microarray; molecule type: double-stranded DNA, one strand shown; medium: in vitro; concentration: not given; relative to: not given; direction: higher = stronger binding
Target: Histone acetyltransferase KAT6A, winged helix 1, GST fusion (KAT6A, Homo sapiens, UniProt Q92794, residues 1-85)
Setting: 8-mer, flanks averaged, mean of 2 arrays, mostly near background
Construct (chain): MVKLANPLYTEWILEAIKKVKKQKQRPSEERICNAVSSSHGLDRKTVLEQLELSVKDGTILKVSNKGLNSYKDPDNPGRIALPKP
| Oligonucleotide | E-score |
| --- | --- |
| CAGAGCAC | -0.129 |
| AAATCGCC | 0.0798 |
| CCCATGAC | -0.184 |
| TAGACTCA | -0.112 |
| AAGGTTAT | -0.0514 |
| AGCTGCAA | -0.0288 |
| ACGAGTCG | -0.117 |
| AGGCTTAA | -0.0629 |
| TAAACAGA | -0.216 |
| CCTCGCCC | 0.0714 |
| CGCTTTGA | 0.136 |
| ACCCAGTG | -0.209 |
| AACATACT | -0.037 |
| AGTAAGTG | -0.0992 |
| ACAGAATC | -0.145 |
| CACCCGAA | -0.0919 |
| ATACGTCC | 0.0854 |
| CCAAGCGC | 0.311 |
| GTTGATCA | 0.0422 |
| AAGGGTCG | 0.157 |

Sample 4 — target: CCND2, cyclin fold, Cln2 fusion (human); technique: yeast growth competition, sequencing; medium: yeast; setting: weak parent motif; relative to: not given; direction: higher = stronger binding
Starting sequence: CDC6 docking peptide (human); TLKGRRLVFDNQL; partner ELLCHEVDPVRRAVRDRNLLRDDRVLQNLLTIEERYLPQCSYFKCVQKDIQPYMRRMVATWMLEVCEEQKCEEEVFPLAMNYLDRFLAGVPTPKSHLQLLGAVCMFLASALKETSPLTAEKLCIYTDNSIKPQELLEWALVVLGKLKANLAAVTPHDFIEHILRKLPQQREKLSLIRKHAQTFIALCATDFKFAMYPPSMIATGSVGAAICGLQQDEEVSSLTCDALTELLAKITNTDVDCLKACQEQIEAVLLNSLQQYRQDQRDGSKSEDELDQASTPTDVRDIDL
| Variant | normalised enrichment score |
| --- | --- |
| NLKGRRLVFDNQL [T1N] | 0.47 |
| TLGGRRLVFDNQL [K3G] | -0.126 |
| TLKGRRLVFDNQI [L13I] | 0.138 |
| TAKGRRLVFDNQL [L2A] | -0.0904 |
| TLKGYRLVFDNQL [R5Y] | -0.0655 |
| TLKTRRLVFDNQL [G4T] | -0.274 |
| TLKERRLVFDNQL [G4E] | 0.0212 |
| QLKGRRLVFDNQL [T1Q] | 0.0493 |
| TLKGRCLVFDNQL [R6C] | 0.538 |
| TLKGRRLVFLNQL [D10L] | 0.0739 |
| TLKGRFLVFDNQL [R6F] | -0.414 |
| TLKCRRLVFDNQL [G4C] | 0.583 |
| TLTGRRLVFDNQL [K3T] | 0.493 |
| TLKGRRLVFSNQL [D10S] | 0.837 |
| TLKGARLVFDNQL [R5A] | 0.0352 |

Sample 5 — technique: protein-binding microarray; molecule type: double-stranded DNA, one strand shown; medium: in vitro; concentration: not given; direction: higher = stronger binding
Target: Transcription factor SOX-2, HMG box (SOX2, Homo sapiens, UniProt P48431, residues 19-118)
Chain of UniProt P48431 (19-118, looked up): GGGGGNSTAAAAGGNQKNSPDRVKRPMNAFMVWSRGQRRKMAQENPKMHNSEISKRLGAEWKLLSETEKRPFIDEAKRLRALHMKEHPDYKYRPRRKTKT
Setting: k-mer, scored over probes, only values ≥0.25
| Oligonucleotide | E-score |
| --- | --- |
| GAATGGC | 0.276 |
| TAAATGA | 0.273 |
| AATTTGT | 0.336 |
| AGAATGA | 0.299 |
| AGCATTG | 0.291 |
| ATTTGTA | 0.278 |
| ATATTGA | 0.318 |
| AATCATT | 0.348 |
| CAATAGG | 0.285 |
| AATGCAT | 0.283 |
| AATATGA | 0.311 |
| AAAAAGC | 0.333 |
| AAACAAA | 0.325 |

Other studies, line by line
| Molecule | target | test | test system | conditions | how to read | measurement | result |
| --- | --- | --- | --- | --- | --- | --- | --- |
| PhoQ, residues 284 288 289 292 302 303 AAQSYM | PhoP, residues 12 14 15 18 19 LWHSL (Escherichia coli, UniProt P23836) | Sort-seq, item: YFP reporter | E. coli | PhoQ-PhoP variant library, together with: 10 µM Mg2+ | relative to: high Mg2+ state, higher = stronger signaling | fold induction | 19.7 and 10.5 |

Excerpt of the above (sample 1):
| Oligonucleotide | fitted relative affinity [z-score] |
| --- | --- |
| GACGGACTGCTACTGCTGAAGTGCTAG | -0.205 |
| TTAGGTCTTGGTTTCGGTTAGTGCTAG | 5.98 |
| TTAGGTATGCTACTGCTTTAGTGCTAG | 0.145 |
| TTAGGTTTCGACACTGGGTGAGTGCTA | 2.16 |
| GGATGTCTGTAGCTCATTCTGTGCTAG | 0.638 |
| GATAATTTATAAATAAAAAAGTGCTAG | -1.45 |
| TTAGATTCCAGTTTAGATTAGTGCTAG | 1.12 |
